# Assay results collected from several papers.
# Parts stem from different laboratories: compare values within a part only.

# Study 1 — method: competition protein-binding microarray; form: double-stranded DNA, one strand shown; matrix: in vitro; tested at: 2 µM; together with: Cbf1 competitor, 0.05 µM; reading: higher = stronger binding
# Target: Phosphate system positive regulatory protein PHO4, full length, GST-tagged (PHO4, Saccharomyces cerevisiae, UniProt P07270, residues 1-312)
# Notes: whole 60-bp probe, lowest competitor level
# Target sequence (chain): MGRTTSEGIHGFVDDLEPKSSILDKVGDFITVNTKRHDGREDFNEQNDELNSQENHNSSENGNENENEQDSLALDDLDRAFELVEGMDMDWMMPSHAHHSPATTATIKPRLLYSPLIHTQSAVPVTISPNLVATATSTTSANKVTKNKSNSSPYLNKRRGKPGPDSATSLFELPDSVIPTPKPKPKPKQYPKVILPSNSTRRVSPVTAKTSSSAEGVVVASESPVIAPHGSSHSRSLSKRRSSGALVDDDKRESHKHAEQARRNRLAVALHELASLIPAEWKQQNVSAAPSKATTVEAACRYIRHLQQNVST
Oligonucleotide,fluorescence intensity [a.u.]
CGATTCACTGTCCATCACGGGTCCGCCTGGCACTGGGTCTTGATTCGCTTGACGCTGCTG,6510
GGCTCAAAGAGATCTCACGTGGTCGGAGTATGAACGGTCTTGATTCGCTTGACGCTGCTG,18800
AAAGCGGTAATTTTTCACGTGGCGTCAAATATCTATGTCTTGATTCGCTTGACGCTGCTG,14100
TTGCTCAACGTTAAAGACGTGCTTTTTTGACTGACTGTCTTGATTCGCTTGACGCTGCTG,6720

# Study 2 — method: RNA Bind-n-Seq; form: RNA; matrix: in vitro; tested at: 365 nM; relative to: no-protein control; reading: higher = stronger binding
# Target: RNA binding protein fox-1 homolog 2, RRM domain, GST-SBP tag (RBFOX2, Homo sapiens, UniProt O43251-10, residues 100-194)
# Notes: natural RNA segment, single round, ends assumed
# Residues (chain): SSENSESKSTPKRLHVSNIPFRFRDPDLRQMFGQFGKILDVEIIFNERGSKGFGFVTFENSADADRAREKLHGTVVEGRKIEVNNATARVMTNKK
Oligonucleotide,RBNS enrichment (R)
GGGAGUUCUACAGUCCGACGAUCAGCUCUUCCUGCCCCGUUCAGCUUCACUCCCACCCUUUCAGCGUCCUGCCCCUUCACCUUGACCCGGGUUCCCCCACUCCCAUUCCCUGGCCUCUGCCAUAAUUUGUUGUUGGAAUUCUCGGGUGCCAA,0.597
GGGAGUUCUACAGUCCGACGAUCUUUCCAUGGUAGCGUGAGCAUUAGGUGACGUGGCUAGCGGAGGACUACCCUUGCUCACUGACUUCCUGUUGUAACACACUUUCCUUACGGAGCCUGGCUGUUUCACAGUAUGGAAUUCUCGGGUGCCAA,0.516
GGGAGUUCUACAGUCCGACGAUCCCAUUGGUUUCUGGCCCUUUCAGGCUACAACCCCCCAGCCUUGCAGGUGUCAGAACAGUCUCACAAUGACAUCAGUUUAGACACAUGCCAUAUACACUUGGAUCUCUGAGUGGAAUUCUCGGGUGCCAA,0.312
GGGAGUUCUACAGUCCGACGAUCGUGUCCCCAAGGUUCUUCCAUCUUCUAGACUGUAACCCUGCCUCCCUGCUUCCUGGUCCAGAGCCUCCCUCCAGUGACUGUGGAGCCUGAGAAGGCCCCCGGGCCCCAGCUGGAAUUCUCGGGUGCCAA,0.353
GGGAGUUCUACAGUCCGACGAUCAGGGCCAGAGUCACAGUAUGGCACCGAGGCAGAAGGGAAGAGCUGAGACUGGCCCUGCCCUGCUUCUCAGUCUGUUCCACAUCCUAAGGUCACACCCUGUCAGGACUUCUUGGAAUUCUCGGGUGCCAA,0.341

# Study 3 — method: universal PBM; form: double-stranded DNA, one strand shown; matrix: in vitro; tested at: 600 nM; reading: higher = stronger binding
# Target: Sal-like protein 4, full length isoform A (SALL4, Homo sapiens, UniProt Q9UJQ4, residues 1-1053)
# UniProt Q9UJQ4, sequence (whole entry, looked up): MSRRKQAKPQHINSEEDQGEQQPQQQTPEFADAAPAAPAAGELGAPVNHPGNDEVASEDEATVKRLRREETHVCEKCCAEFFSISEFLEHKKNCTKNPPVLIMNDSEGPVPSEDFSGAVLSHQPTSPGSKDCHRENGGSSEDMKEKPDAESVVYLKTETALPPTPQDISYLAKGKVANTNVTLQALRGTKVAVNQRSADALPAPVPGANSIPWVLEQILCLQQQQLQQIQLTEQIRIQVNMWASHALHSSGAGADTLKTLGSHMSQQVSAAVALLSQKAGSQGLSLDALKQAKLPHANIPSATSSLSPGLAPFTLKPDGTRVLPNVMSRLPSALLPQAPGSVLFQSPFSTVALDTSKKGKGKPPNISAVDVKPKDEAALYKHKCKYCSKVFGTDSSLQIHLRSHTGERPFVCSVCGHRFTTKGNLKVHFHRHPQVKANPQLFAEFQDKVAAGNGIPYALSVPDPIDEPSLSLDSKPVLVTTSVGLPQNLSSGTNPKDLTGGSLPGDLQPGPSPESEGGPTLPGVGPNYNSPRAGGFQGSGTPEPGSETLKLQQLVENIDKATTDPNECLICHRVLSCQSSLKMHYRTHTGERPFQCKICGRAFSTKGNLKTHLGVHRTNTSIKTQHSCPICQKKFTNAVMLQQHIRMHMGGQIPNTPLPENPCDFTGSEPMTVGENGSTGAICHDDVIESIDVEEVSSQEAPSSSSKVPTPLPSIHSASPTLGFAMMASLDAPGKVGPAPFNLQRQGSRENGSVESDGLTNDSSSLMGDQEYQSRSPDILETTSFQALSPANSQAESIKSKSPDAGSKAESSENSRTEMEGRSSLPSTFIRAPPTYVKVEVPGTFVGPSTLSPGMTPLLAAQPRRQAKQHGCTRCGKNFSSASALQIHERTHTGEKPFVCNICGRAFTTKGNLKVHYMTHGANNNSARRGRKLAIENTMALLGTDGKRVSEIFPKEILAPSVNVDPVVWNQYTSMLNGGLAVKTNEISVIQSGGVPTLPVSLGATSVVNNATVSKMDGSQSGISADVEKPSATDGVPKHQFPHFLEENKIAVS
# Notes: 8-mer, flanks averaged, mean of replicates
Oligonucleotide,E-score
GCAGTCTA,0.0165
ACCGTGCT,-0.243
CGTAAGAC,-0.0396
AAATAGGC,0.161
ACATCCTA,0.0947

# Mixed results
Molecule,target,test,system,setting,scale,measurement,value
"PhoQ, residues 284 288 289 292 302 303 QWGLFV","PhoP, residues 12 14 15 18 19 LHTVM (Escherichia coli, UniProt P23836)","Sort-seq, refers to: YFP reporter",E. coli,"PhoQ-PhoP variant library, together with: 10 µM Mg2+","relative to: high Mg2+ state, higher = stronger signaling",fold induction,15.3

# Some of these lines once more (study 2):
Oligonucleotide,RBNS enrichment (R)
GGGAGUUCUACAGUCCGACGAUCAGCUCUUCCUGCCCCGUUCAGCUUCACUCCCACCCUUUCAGCGUCCUGCCCCUUCACCUUGACCCGGGUUCCCCCACUCCCAUUCCCUGGCCUCUGCCAUAAUUUGUUGUUGGAAUUCUCGGGUGCCAA,0.597
